Assay results gathered from unrelated publications.
Every numbered part comes from another study and shows a few of its results, in no order. Several values in a cell are separate wells, animals, samples, runs or records.
UniProt Q8TF76, sequence (whole entry, looked up): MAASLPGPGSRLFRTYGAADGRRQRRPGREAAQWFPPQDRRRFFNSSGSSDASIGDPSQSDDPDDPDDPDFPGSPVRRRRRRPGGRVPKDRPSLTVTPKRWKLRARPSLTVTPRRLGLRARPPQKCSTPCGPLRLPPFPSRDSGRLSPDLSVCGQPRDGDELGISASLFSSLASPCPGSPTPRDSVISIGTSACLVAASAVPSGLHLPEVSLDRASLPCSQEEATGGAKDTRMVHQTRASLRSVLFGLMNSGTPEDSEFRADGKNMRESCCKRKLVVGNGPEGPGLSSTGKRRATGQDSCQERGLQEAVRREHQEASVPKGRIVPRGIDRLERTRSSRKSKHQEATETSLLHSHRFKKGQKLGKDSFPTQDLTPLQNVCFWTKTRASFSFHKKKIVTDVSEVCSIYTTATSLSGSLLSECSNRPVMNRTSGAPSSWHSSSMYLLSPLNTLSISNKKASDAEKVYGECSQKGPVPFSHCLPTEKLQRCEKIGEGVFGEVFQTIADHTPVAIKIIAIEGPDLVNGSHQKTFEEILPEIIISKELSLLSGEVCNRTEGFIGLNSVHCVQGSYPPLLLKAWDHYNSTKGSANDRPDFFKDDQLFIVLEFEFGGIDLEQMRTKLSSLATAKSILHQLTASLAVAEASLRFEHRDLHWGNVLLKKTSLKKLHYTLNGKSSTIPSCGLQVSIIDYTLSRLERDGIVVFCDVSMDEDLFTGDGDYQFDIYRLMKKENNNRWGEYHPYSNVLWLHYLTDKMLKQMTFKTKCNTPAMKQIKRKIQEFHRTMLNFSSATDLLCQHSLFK
UniProt P49674, sequence (whole entry, looked up): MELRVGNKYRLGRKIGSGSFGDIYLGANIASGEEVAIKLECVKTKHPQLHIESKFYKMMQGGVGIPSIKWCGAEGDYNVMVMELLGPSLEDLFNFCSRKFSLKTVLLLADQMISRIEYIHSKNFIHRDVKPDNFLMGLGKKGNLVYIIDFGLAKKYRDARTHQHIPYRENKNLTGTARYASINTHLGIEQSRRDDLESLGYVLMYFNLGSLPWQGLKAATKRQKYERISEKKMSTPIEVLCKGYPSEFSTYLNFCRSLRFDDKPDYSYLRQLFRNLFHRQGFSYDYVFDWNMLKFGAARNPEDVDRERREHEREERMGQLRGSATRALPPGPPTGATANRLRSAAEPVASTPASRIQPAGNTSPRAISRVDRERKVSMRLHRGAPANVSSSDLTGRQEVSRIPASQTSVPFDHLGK

Block 1
SMILES: CCc1[nH]c(-c2ccc(OC)cc2)nc1-c1ccncc1
Effect on: enzyme activity
Mode: inhibitor
Concentration: 0.5 µM
Baseline: control
| target | remaining activity |
| --- | --- |
| FLT1 (Homo sapiens, UniProt P17948) | 90.2% |
| CSNK1D (Homo sapiens, UniProt P48730) | 95.1% |
| MUSK (Homo sapiens, UniProt O15146) | 85.9% |
| CAMK1 (Homo sapiens, UniProt Q14012) | 108% |
| CSNK1E (Homo sapiens, UniProt P49674) | 95% |
| SIK2 (Homo sapiens, UniProt Q9H0K1) | 88.3% |
| JAK1 (Homo sapiens, UniProt P23458) | 110% |
| PAK6 (Homo sapiens, UniProt Q9NQU5) | 102% |
| PRKCZ (Homo sapiens, UniProt Q05513) | 107% |
| RPS6KA3 (Homo sapiens, UniProt P51812) | 98.7% |
| CAMKK1 (Homo sapiens, UniProt Q8N5S9) | 122% |
| MAP3K20 (Homo sapiens, UniProt Q9NYL2) | 106% |
| Cyclin-dependent kinase 2, with cyclin E (CDK2, Homo sapiens, UniProt P24941) | 93.7% |
| TYRO3 (Homo sapiens, UniProt Q06418) | 97.9% |
| CLK2 (Homo sapiens, UniProt P49760) | 106% |
| EPHA2 (Homo sapiens, UniProt P29317) | 102% |
| SRPK1 (Homo sapiens, UniProt Q96SB4) | 106% |
| PRKCQ (Homo sapiens, UniProt Q04759) | 121% |
| SGK2 (Homo sapiens, UniProt Q9HBY8) | 103% |
| TEC (Homo sapiens, UniProt P42680) | 109% |
| IGF1R (Homo sapiens, UniProt P08069) | 99.5% |
| EPHA6 (Homo sapiens, UniProt Q9UF33) | 104% |
| PAK1 (Homo sapiens, UniProt Q13153) | 99.3% |

Block 2
Cell line: mouse MPNST tumor cells
Method: high-content nuclear imaging
Measured: cell number
Concentration: 10 µM
Time: 12 h
Notes: mean of 2 replicates
Baseline: plate mean
Reading: higher = more cells
| Compound | nuclei count |
| --- | --- |
| CC(C(=O)O)c1ccc2c(c1)Cc1cccnc1O2 (centres unmarked) | 0.273 z-score |
| O=C1CN(/N=C/c2ccc(-c3ccc([N+](=O)[O-])cc3)o2)C(=O)N1 | -0.341 z-score and -1.02 z-score |
| CCOC(=O)c1ccc(N(C)c2csc(-c3ccccc3)n2)cc1 | -0.0232 z-score |
| CCC(=O)N1CCOc2c(cc(-c3ccc(OC)c(OC)c3)cc2OC[C@H]2CCCN(C)C2)C1 | 3.34 z-score and 4.71 z-score |
| C[C@H]1[C@@H](O)O[C@@H]2O[C@@]3(C)CC[C@H]4[C@H](C)CC[C@@H]1[C@@]24OO3 | -3.08 z-score |
| Cc1ccc(NC(=O)CCCCCC(=O)Nc2ccccc2N)cc1 | 1.7 z-score |
| c1ccc(C(OC2CCN(CCCc3nn[nH]n3)CC2)c2ccccc2)cc1 | 1.89 z-score |
| O=C(O)c1ccc(-c2c[nH]c3ncc(-c4ccccc4)cc23)cc1C1CCCC1 | -1.95 z-score |
| CC(=O)OCC(=O)[C@@]1(O)CC[C@H]2[C@@H]3CCC4=CC(=O)C=C[C@]4(C)[C@@]3(F)[C@@H](O)C[C@@]21C | 4.57 z-score |
| CCCCC(C)(O)C/C=C/[C@H]1[C@H](O)CC(=O)[C@@H]1CCCCCCC(=O)OC (mixture of isomers) | 0.396 z-score |

Block 3
Target: DNA polymerase theta, ATPase domain (POLQ, Homo sapiens, UniProt O75417)
UniProt O75417, sequence (whole entry, unmodified, looked up): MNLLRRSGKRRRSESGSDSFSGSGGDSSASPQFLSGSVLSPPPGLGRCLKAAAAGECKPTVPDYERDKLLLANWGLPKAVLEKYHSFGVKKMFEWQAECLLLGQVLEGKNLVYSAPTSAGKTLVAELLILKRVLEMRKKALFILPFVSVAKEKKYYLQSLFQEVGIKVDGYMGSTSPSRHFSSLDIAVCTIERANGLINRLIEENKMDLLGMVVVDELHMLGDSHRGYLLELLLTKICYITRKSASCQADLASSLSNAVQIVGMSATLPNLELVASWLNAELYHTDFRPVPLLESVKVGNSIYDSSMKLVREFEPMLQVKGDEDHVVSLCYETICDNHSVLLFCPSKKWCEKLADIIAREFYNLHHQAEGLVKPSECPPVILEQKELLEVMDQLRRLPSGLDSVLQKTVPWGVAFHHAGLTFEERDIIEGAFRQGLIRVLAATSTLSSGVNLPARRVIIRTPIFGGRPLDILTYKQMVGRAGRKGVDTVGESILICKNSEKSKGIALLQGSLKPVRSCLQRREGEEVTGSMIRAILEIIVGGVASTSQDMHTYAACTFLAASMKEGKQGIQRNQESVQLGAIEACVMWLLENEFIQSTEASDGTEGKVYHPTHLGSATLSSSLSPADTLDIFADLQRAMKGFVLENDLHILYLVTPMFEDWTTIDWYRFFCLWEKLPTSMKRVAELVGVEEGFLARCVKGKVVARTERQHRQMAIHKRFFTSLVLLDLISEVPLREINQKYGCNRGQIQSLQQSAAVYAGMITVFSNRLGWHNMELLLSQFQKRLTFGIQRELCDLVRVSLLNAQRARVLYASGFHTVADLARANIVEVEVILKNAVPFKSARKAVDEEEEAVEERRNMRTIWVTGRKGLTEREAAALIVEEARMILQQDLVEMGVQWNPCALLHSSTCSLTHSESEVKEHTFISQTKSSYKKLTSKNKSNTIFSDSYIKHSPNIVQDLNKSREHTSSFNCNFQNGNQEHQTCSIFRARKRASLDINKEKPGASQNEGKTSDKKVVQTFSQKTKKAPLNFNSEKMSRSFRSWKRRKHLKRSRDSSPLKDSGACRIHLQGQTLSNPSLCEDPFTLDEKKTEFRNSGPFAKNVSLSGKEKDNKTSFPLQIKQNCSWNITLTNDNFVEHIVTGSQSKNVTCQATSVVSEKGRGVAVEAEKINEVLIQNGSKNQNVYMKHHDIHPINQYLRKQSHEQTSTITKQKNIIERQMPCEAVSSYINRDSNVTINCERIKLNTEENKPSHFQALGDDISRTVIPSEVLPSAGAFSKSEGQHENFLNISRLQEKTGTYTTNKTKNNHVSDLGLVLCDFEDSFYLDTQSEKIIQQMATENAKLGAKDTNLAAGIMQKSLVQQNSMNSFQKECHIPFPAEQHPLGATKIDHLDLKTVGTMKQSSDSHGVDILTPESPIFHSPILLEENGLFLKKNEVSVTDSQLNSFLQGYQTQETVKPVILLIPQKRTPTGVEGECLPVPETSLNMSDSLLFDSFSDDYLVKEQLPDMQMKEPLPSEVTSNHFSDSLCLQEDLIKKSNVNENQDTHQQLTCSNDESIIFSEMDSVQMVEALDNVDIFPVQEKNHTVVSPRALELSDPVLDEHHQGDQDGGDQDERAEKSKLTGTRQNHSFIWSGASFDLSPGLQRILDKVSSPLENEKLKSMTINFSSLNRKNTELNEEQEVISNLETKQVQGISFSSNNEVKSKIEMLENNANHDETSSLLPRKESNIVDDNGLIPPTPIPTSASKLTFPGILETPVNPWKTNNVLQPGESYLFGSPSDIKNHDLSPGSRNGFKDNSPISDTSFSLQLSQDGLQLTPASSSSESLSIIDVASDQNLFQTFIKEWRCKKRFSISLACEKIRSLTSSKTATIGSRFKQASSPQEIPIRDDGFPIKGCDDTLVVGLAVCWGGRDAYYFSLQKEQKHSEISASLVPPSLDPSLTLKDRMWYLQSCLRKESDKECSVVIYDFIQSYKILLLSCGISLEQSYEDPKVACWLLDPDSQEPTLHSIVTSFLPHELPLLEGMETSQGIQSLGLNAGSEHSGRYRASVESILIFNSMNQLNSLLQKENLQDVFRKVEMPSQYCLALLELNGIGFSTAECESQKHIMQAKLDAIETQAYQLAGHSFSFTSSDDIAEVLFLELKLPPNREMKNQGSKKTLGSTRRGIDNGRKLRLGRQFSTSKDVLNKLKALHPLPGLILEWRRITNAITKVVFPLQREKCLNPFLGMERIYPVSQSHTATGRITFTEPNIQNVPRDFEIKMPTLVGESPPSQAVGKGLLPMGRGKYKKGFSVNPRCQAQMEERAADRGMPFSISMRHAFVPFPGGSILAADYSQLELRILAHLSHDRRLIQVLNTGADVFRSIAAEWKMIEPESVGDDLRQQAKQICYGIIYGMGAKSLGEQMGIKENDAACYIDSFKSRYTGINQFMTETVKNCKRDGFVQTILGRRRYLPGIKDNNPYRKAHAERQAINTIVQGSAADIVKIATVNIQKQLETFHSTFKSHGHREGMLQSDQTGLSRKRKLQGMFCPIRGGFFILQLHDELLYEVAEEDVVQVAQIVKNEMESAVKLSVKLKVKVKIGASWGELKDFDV
Effect on: enzyme activity
Mode: inhibitor
Concentration: 77 µM
Baseline: untreated
| SMILES | remaining activity |
| --- | --- |
| CC(=O)Oc1cc2c(s1)CCN(C(C(=O)C1CC1)c1ccccc1F)C2 (centres unmarked) | 96.9% |
| CC1=C(C(=O)OC(C)C)C(c2cccc([N+](=O)[O-])c2)C(C(=O)OC2CN(C(c3ccccc3)c3ccccc3)C2)=C(N)N1 (centres unmarked) | 103% |
| CC1CCc2cc(F)cc3c(=O)c(C(=O)O)cn1c23 (centres unmarked) | 103% and 102% |
| Cc1cc(C(C)(C)CC(C)(C)C)ccc1OCCOCC[N+](C)(C)Cc1ccccc1 | 106% |
| NNCCc1ccccc1 | 104% |
| CCCCCCC[N+](CC)(CC)CCCCc1ccc(Cl)cc1 | 95.7% |

Block 4
Structure (SMILES): CN(c1ccnc(CNc2nc(Nc3ccc4c(c3)CC(=O)N4)ncc2C(F)(F)F)n1)S(C)(=O)=O
Effect on: cell-free assay
Method: competition with immobilised ligand
Concentration: 1 µM
| target | remaining binding |
| --- | --- |
| MAP3K15 (Homo sapiens, UniProt Q6ZN16) | 92% |
| BMPR1B (Homo sapiens, UniProt O00238) | 3.6% |
| HASPIN (Homo sapiens, UniProt Q8TF76) | 76% |
| MAP3K4 (Homo sapiens, UniProt Q9Y6R4) | 91% |
| ACVR1B (Homo sapiens, UniProt P36896) | 26% |
| CDK13 (Homo sapiens, UniProt Q14004) | 82% |
| TTK (Homo sapiens, UniProt P33981) | 13% |
| CSNK2A2 (Homo sapiens, UniProt P19784) | 6.7% |
| Ribosomal protein S6 kinase alpha-4, N-terminal kinase domain (RPS6KA4, Homo sapiens, UniProt O75676) | 81% |
| GSK3B (Homo sapiens, UniProt P49841) | 57% |
| Receptor-type tyrosine-protein kinase FLT3, autoinhibited (FLT3, Homo sapiens, UniProt P36888) | 64% |
| MAP3K1 (Homo sapiens, UniProt Q13233) | 49% |
| EGFR (Homo sapiens, UniProt P00533, del746-750) | 44% |
| NEK3 (Homo sapiens, UniProt P51956) | 60% |

Some of these lines once more (block 1):
| target | remaining activity |
| --- | --- |
| CSNK1D (Homo sapiens, UniProt P48730) | 95.1% |
| MUSK (Homo sapiens, UniProt O15146) | 85.9% |
| CAMK1 (Homo sapiens, UniProt Q14012) | 108% |
| CSNK1E (Homo sapiens, UniProt P49674) | 95% |
| SIK2 (Homo sapiens, UniProt Q9H0K1) | 88.3% |
| JAK1 (Homo sapiens, UniProt P23458) | 110% |
